Assay results gathered from unrelated publications.
A part holds a random share of what one study measured. “And” joins repeats or separate records; there may be more than shown. Changes are numbered by the printed parent chain.

Set 1 — target: CCNB3, cyclin fold, Cln2 fusion (human); method: yeast growth competition, sequencing; sample: yeast; notes: strong parent motif; reference: not given; reading: higher = stronger binding
Starting sequence: viral docking peptide; TSVRRALFTGGSD; partner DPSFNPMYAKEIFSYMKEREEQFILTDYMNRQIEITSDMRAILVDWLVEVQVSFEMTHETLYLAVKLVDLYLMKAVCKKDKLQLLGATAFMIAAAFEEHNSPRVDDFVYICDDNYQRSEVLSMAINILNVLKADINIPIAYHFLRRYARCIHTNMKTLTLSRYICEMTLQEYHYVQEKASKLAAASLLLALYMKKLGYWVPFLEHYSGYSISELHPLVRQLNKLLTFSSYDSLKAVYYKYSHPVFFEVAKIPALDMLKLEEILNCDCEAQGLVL
Variant | normalised enrichment score
T9P | 2.28
S12T | 1.76
S2T | 1.76
G10F | 1.61
V3S | -0.0994
S2H | 2.06
L7M | 0.314
R5Q | 0.162

Set 2 — target: inorganic phosphate, free oxyanion; method: microfluidic competitive inhibition; sample: in vitro, cell-free expressed; tested at: not given; reading: lower = stronger binding
Notes: derived from inhibition constants, unchanged parent 615000 nM
Starting sequence: PafA, mature enzyme, eGFP fusion (Elizabethkingia meningoseptica, UniProt Q9KJX5); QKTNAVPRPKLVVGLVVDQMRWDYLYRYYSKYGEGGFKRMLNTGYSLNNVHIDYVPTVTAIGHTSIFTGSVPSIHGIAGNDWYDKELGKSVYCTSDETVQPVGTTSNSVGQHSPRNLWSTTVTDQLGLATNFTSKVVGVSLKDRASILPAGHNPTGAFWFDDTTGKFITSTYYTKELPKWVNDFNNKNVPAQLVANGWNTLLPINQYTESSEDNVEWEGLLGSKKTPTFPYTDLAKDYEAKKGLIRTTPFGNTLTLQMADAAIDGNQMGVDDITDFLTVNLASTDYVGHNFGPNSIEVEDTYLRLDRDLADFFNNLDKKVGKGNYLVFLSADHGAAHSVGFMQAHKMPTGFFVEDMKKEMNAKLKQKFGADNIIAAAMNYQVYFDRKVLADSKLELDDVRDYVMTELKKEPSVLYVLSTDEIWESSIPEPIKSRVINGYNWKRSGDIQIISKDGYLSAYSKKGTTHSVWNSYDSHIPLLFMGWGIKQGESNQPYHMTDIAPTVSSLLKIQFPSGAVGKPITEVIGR
Variant | phosphate dissociation constant
G251A | 501 µM
V16A | 515 µM
R434G | 525 µM
A500G | 438 µM
S504V | 605 µM
E359V | 648 µM
P9G | 490 µM
K85V | 620 µM

Set 3 — effect on: binding; method: phage display NGS; molecule type: peptide; tested at: concentration not given; reference: input library
Target: UDP-N-acetylglucosamine--peptide N-acetylglucosaminyltransferase 110 kDa subunit (OGT, Homo sapiens, UniProt O15294)
Sequence of UniProt O15294 (whole entry, looked up): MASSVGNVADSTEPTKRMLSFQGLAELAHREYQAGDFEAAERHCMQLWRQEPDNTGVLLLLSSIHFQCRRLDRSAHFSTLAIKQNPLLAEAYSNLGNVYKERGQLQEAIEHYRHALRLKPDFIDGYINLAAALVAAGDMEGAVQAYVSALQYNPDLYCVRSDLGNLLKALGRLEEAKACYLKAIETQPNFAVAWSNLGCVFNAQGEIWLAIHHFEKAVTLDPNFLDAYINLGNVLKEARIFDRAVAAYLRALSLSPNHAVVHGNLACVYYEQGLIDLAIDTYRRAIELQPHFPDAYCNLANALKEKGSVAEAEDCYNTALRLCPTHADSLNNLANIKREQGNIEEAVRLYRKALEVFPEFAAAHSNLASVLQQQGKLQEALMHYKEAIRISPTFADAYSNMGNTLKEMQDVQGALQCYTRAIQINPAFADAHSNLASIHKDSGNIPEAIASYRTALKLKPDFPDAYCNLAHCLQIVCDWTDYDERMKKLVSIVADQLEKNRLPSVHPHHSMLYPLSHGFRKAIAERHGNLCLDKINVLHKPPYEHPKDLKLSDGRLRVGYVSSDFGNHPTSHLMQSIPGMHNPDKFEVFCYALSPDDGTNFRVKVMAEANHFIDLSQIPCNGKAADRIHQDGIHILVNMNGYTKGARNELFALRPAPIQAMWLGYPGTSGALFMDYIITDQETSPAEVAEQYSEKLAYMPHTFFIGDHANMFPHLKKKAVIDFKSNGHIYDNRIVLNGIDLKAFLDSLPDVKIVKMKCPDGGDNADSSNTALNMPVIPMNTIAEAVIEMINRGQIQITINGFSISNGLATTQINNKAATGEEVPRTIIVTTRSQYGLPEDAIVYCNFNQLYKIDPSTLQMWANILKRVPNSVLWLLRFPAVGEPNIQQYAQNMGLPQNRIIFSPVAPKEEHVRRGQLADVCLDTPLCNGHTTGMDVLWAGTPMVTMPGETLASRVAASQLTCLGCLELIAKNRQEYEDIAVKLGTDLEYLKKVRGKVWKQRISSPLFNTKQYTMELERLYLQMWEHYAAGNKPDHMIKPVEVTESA
Molecule | enrichment fold change
QWKPRHDHIHYYEYH | 8
THTYHPHHIPSDHVH | 10.1
HGHRLRSESHTHVRQ | 2.38
TWEWPYHRHMQHPFA | 15
HSTPYHYSHVHEPYF | 4.06
HTAWQPWINGHDHHH | 9.16
HQHRDMRTHPSHGAI | 9.63
GVQDYLPMYQISMSN | 2.44

Other studies, line by line
SMILES | species | sample | route | dose | time | measurement | value
O=C1CCC(N2Cc3c(ccc4c3OCC43CCN(Cc4ccccc4)CC3)C2=O)C(=O)N1 (stereo not shown) | ICR mouse, male | plasma | intravenous | 1 mg/kg | 6 h | plasma concentration | 7.34 ng/mL and 4.94 ng/mL and 12.9 ng/mL

For quick reference, copied from above (set 2):
Variant | phosphate dissociation constant
R434G | 525 µM
A500G | 438 µM
S504V | 605 µM
E359V | 648 µM
